Results from different studies.
Each line is one published result; not all experiments were run side by side.

For `O=C(Nc1cnccc1Cl)N1CCN(Cc2ccc3c(c2)OC(F)(F)O3)CC1`, “subjects with adverse events” read 83.3% (multiple ascending dose; young men; 75 mg, at least 1 treatment-emergent event).
For `NCCONC(=O)[C@@H]1CC[C@@H]2CN1C(=O)N2OS(=O)(=O)O`, “subjects with TEAEs” read 62.5% (healthy Chinese male subjects; intravenous, 2 g).
Under “subjects with any TEAE”, `Cc1c(Cl)c(C)[n+]([O-])c(Cl)c1-c1noc(-c2cc(O)c(O)c([N+](=O)[O-])c2)n1` is recorded as 24.3% (healthy subjects; oral, dose not given, all subjects).
Under “subjects feeling hot”, `C[C@H]1CNCCCN1S(=O)(=O)c1cccc2cncc(F)c12` is recorded as 5.6% (healthy adult men; ocular, 1 drop per eye twice daily, 8 days, adverse event).
Under “subjects with serious adverse events”, `C=CC(=O)NC1CCN(c2ncc3ncnc(Nc4ccc(Oc5ccc6c(c5)ncn6C)c(C)c4)c3n2)CC1` is recorded as 0% (healthy male volunteers; intravenous then oral, dose not given, 1 week).
`CC[C@H](C)[C@H](NC(=O)[C@H](Cc1ccccc1)NC(=O)[C@H](CCC(=O)O)NC(=O)[C@H](CCCCNC(=O)COCCOCCNC(=O)COCCOCCNC(=O)CC[C@H](NC(=O)CCCCCCCCCCCCCCCCC(=O)O)C(=O)O)NC(=O)[C@H](C)NC(=O)[C@H](C)NC(=O)[C@H](CCC(N)=O)NC(=O)CNC(=O)[C@H](CCC(=O)O)NC(=O)[C@H](CC(C)C)NC(=O)[C@H](Cc1ccc(O)cc1)NC(=O)[C@H](CO)NC(=O)[C@H](CO)NC(=O)[C@@H](NC(=O)[C@H](CC(=O)O)NC(=O)[C@H](CO)NC(=O)[C@@H](NC(=O)[C@H](Cc1ccccc1)NC(=O)[C@@H](NC(=O)CNC(=O)[C@H](CCC(=O)O)NC(=O)C(C)(C)NC(=O)[C@@H](N)Cc1cnc[nH]1)[C@@H](C)O)[C@@H](C)O)C(C)C)C(=O)N[C@@H](C)C(=O)N[C@@H](Cc1c[nH]c2ccccc12)C(=O)N[C@@H](CC(C)C)C(=O)N[C@H](C(=O)N[C@@H](CCCNC(=N)N)C(=O)NCC(=O)N[C@@H](CCCNC(=N)N)C(=O)NCC(=O)O)C(C)C` — result for “subjects with adverse events”: 62.5% (Japanese subjects; 0.5 mg, mild adverse events).
`O=C(O)CCC(=O)O.[2H]C([2H])([2H])Oc1cc(C)c2[nH]ccc2c1CN1CC[C@@H](C2CC2)C[C@H]1c1ccc(C(=O)O)cc1`: “subjects with drug-related TEAEs” 32.5% (healthy Chinese subjects; dose not given, multiple ascending dose pooled).
Under “subjects with dry mouth”, `COc1c(N2C[C@@H]3CCCN[C@@H]3C2)c(F)cc2c(=O)c(C(=O)O)cn(C3CC3)c12` is recorded as 0% (healthy volunteers; 400 mg).

For quick reference, copied from above:
Under “subjects with any TEAE”, `Cc1c(Cl)c(C)[n+]([O-])c(Cl)c1-c1noc(-c2cc(O)c(O)c([N+](=O)[O-])c2)n1` is recorded as 24.3% (healthy subjects; oral, dose not given, all subjects).
